Measurements gathered from unrelated publications.
Protocols differ between the studies behind these lines. “And” joins repeats or separate records; there may be more than shown. ± marks the error that the study gave.

SMILES	test	system	setting	how to read	measurement	result
C[C@@H](N)C1CCN(S(=O)(=O)c2cccc3cnccc23)CC1	–	healthy volunteers	25 mg, fasted	–	participants with mental impairment	0%
CC(=O)N(C)[C@H]1CCN(C(=O)c2cnc3c(c2)C[C@](C)(c2ccc(F)cc2)N3)C1	measured: creatine kinase increased	human	oral, 30 mg once daily	–	adverse event duration	22 days
COc1cc(Nc2ncc3c(n2)-c2ccc(Cl)cc2C(c2c(F)cccc2OC)=NC3)ccc1C(=O)O	–	patients	oral, dose not given, grade 1, any attribution, together with: pembrolizumab	–	anaemia incidence	67%
Cc1ccc(Sc2ccccc2N2CCNCC2)c(C)c1	measured: Dizziness	healthy adult men	oral, 10 mg daily, 12 days	–	participants with TEAE	0%
O=C1NCCc2nc(OCc3cccc(F)c3)ccc21	modified Irwin test	Sprague-Dawley rat, male	oral, 100 mg/kg, 30 min	higher = stronger effect	rigid stance score	0
CCCCc1oc2ccccc2c1C(=O)c1cc(I)c(OCCN(CC)CC)c(I)c1	–	male Hartley guinea pigs, anaesthetized	intravenous, 10 mg/kg group, baseline before infusion	–	heart rate	245 ± 0.4 beats/min
CNC(=O)c1ccc(-c2cnc3ncc(Cc4ccc5ncccc5c4)n3n2)cc1F	–	human, plasma	oral, 200 mg, mean	–	AUC(0-inf)	5630 ng·h/mL
C[C@H]1O[C@@H](O[C@H]2CC[C@@]3(C)[C@@H](CC[C@]4(C)[C@@H]3C=C[C@]35OC[C@@]6(CCC(C)(C)C[C@H]63)[C@@H](O)C[C@]54C)[C@]2(C)CO)[C@H](O)[C@@H](O[C@@H]2O[C@H](CO)[C@@H](O)[C@H](O)[C@H]2O)[C@H]1O	UHPLC-MS/MS	mouse, plasma	oral, 50 mg/kg, 10 h, pooled samples	–	plasma concentration	0 ng/mL
CN(C(=O)n1cnc(-c2cccnc2)c1)C1CCCCC1	–	Wistar rat, cerebral cortex	oral, 10 mg/kg, 4 h, single dose	–	tissue concentration	35.8 ± 6.8 ng/g
O=C(O)CCCOc1ccc([18F])cc1-c1cc(-c2ccccc2C(F)(F)F)n(-c2ccccc2)n1	gamma counting	male ddY mice, heart	intravenous, 2.1 MBq, 15 min	–	radioactivity uptake	7.56 ± 0.87 SUV
COc1ccc2[nH]c([S@+]([O-])Cc3ncc(CO)c(OC)c3C)nc2c1	–	human, dried plasma spots	5 mg racemic omeprazole, together with: fluvoxamine and voriconazole	–	AUC(0-8 h)	0.153 µM·h
FC(F)(F)c1ccc(CNc2ccc(Cc3c[nH]c4ncc(Cl)cc34)cn2)cn1	measured: face oedema	human, advanced solid tumours, non-TGCT cohort	oral, 1000 mg/day, grade 3 or higher	–	treatment-related adverse events	0%
N#Cc1ccc2c(c1)[C@H]1CCCN(C(=O)c3ccc4[nH]cnc4c3)[C@H]1C2	–	human	80 mg, day 15	–	mean ACTH level	7.8 pmol/L
CNCCOC12CC3(C)CC(C)(CC(Cn4ncc(-c5ccc(N6CCc7cccc(C(=O)Nc8nc9ccccc9s8)c7C6)nc5C(=O)O)c4C)(C3)C1)C2	–	beagle dog, male, anaesthetised	intravenous bolus, 0.03 mg/kg, 150 min	reference: baseline	mean arterial pressure change	-15%
CNc1ccc(-c2nc3ccc(O)cc3s2)cc1 [carbon-11 labelled]	ex vivo biodistribution	APP/PS1 Alzheimer mice, brain stem	intravenous, 30 min	–	uptake	0.241 ± 0.13 SUV
N#Cc1ccc2c(c1)[C@H]1CCCN(C(=O)c3ccc4[nH]cnc4c3)[C@H]1C2	–	human, plasma	oral, 20 mg once daily, steady state	–	AUC(tau) steady state	21.2 µM·h
O=C(O)CCC(=O)O.[2H]C([2H])([2H])Oc1cc(C)c2[nH]ccc2c1CN1CC[C@@H](C2CC2)C[C@H]1c1ccc(C(=O)O)cc1	–	healthy Chinese subjects	600 mg, single ascending dose	–	TEAE sinus bradycardia	16.7%
NCc1ccc(-c2nn(Cc3ccncc3)c3ccccc23)o1	–	male CD1 mouse, plasma	intravenous, 5 mg/kg	–	volume of distribution at steady state	17.3 L/kg
CCc1cc(C(=O)NC)c2nccc(N3CCc4c(cc(Cn5ccnc5)cc4-c4cn(C)nc4C(F)(F)F)C3=O)c2c1	–	Sprague Dawley rats	oral, 100 mg/kg once daily, 7 days	–	serum GGT activity	0.5 ± 0.58 U/L

SMILES	test	system	setting	how to read	measurement	result
C=CC(=O)Nc1cc(Nc2nccc(-c3cn(C4CC4)c4ccccc34)n2)c(OC)cc1N(C)CCN(C)C	–	BALB/c nude mouse, LU0387 xenograft, blood	oral, 40 mg/kg	–	NEUT percentage	37.7 ± 5.3%
CNC(=O)c1ccc(-c2cnc3ncc(Cc4ccc5ncccc5c4)n3n2)cc1F	CTCAE v4.0, any causality	human gastric cancer patients	oral, 600 mg twice daily, expansion cohort at RP2D	–	peripheral edema incidence (all grades)	44%
CNC(=O)c1cc(Oc2ccc(NC(=O)Nc3cc(C(C)(C)C)nn3-c3ccc4ncccc4c3)c(F)c2)ccn1	–	human	oral, dose not given, cycles 1 and 2, Low Cmax subgroup	–	patients with any AE of special interest	47%
Clc1ccccc1C(c1ccccc1)(c1ccccc1)n1ccnc1	–	50 mM phosphate buffer, 100 µg/mL HPMCAS	pH 6.5, 37 °C, average of three methods	–	amorphous solubility	5.1 µg/mL
O=C(Nc1nc2cccc(-c3ccc(CN4CCS(=O)(=O)CC4)cc3)n2n1)C1CC1	measured: nausea	human rheumatoid arthritis patients	oral, 30 mg once daily, 4 weeks, regardless of relatedness	–	treatment-emergent adverse events	5.9%
O=C(O)CCc1ccc(O)c(OS(=O)(=O)O)c1	–	human CSF	concentration not given, mean	–	CSF concentration	not detected
C=CC(=O)N(C)CCOc1c(N)ncnc1-c1cc(F)cc(NC(=O)c2ccc(C3CC3)cc2F)c1C	–	human	oral, 50 mg, day 3, arithmetic mean, given alone	–	Cmax per dose	2.77 ng/mL/mg
Cc1noc(C)c1-c1cc(C(O)(c2ccccn2)c2ccccn2)c2nc(C3CC3)[nH]c2c1	–	human patients, plasma	oral, 4 mg, cycle 1 day 8, monotherapy	–	Ctau	168 ng/mL
COc1cc2nccc(Oc3ccc(NC(=O)c4cc5c(n(-c6ccccc6)c4=O)CCCC5=O)nc3)c2cc1OC	–	patients with relapsed/refractory AML	oral, 10 mg once daily	–	TEAEs leading to discontinuation	14.3%
COc1ccc([C@@H](O)c2cc(-c3ncnc4cc(N5CCOCC5)ccc34)c(F)cc2Cl)nn1	–	locally advanced rectal cancer patients	50 mg, together with: capecitabine and radiotherapy	–	anaemia TEAE incidence	0%
NCCCCCNCc1ccc(CNC(=O)c2csc3nc[nH]c(=O)c23)cc1	haemolysis	human red blood cells	1 h, 37 °C	–	EC50	> 100 µM
CN(C)C(=N)N=C(N)N	measured: phlebitis	healthy men	oral, dose not given, 8 days, treatment-emergent, crossover trial	–	subjects with adverse event	4.5%
CCN1/C(=C/C(C)=O)Sc2ccc(F)cc21	–	cynomolgus monkey	oral, 10 mg/kg, 24 h post-dose	reference: pre-dose	diastolic blood pressure change	110 ± 9.4%
CC(C)C[C@H](NC(=O)[C@H](Cc1ccccc1)NC(=O)c1cnccn1)B(O)O	–	mouse xenograft, lung	dose not given	–	organ weight	151 mg
CC(C)(C(=O)N1CCOc2c(C#N)cncc2C1)C(F)F	measured: Arthralgia	human	oral, 10 mg once daily, 14 days, multiple ascending dose	–	subjects with adverse event	0%
CN1C[C@H](COc2nccc3c(NCc4ccco4)cc(Cl)nc23)OC1=O	–	rabbit NZW female, isolated Langendorff heart	10 µM, 15 min	–	heart rate	149 beats/min
CCCCCCC#Cc1cncc(-c2nnc(SCc3ccc([N+](=O)[O-])o3)n2C2CC2)c1	–	African green monkey cells	72 h	–	CC50	7.8 ± 0.476 µM
O=C(O)C=Cc1ccc(O[C@@H]2O[C@H](C(=O)O)[C@@H](O)[C@H](O)[C@H]2O)cc1	–	human CSF	concentration not given, mean	–	CSF concentration	not detected
O=C(/C=C/CCc1ccc(O)cc1)/C=C/c1ccc(O)cc1	–	nude mouse MCF7 xenograft	40 mg/kg, day 8	–	body weight	19.8 ± 0.92 g

SMILES	test	system	setting	how to read	measurement	result
COc1cc2c(cc1OC)C(=O)C(CC1CCN(Cc3ccccc3)CC1)C2 (centres unmarked)	spirometry	human subjects	–	reference: placebo	FVC	0.00389 L
CC(C)(C)c1ccc(C(O)CCCN2CCC(C(O)(c3ccccc3)c3ccccc3)CC2)cc1 (centres unmarked)	–	male Hartley guinea pigs, anaesthetized	intravenous, 3 mg/kg over 10 min, after infusion	–	heart rate	188 ± 0.6 beats/min
C[C@@H](Oc1ccc(S(C)(=O)=O)cc1C(=O)N1C[C@@H]2C[C@]2(c2cc(C(F)(F)F)on2)C1)C(F)(F)F	–	human	oral, 25 mg	–	incidence of Rhinitis	16.7%
COc1ccc([C@@H]2Sc3ccccc3N(CCN(C)C)C(=O)[C@@H]2OC(C)=O)cc1	equilibrium dialysis	human liver microsomes	2 µM, 20 h, pH 7.4, 37 °C, 0.5 mg/mL scaled to 1 mg/mL	–	fu,mic	0.852
CCC(C)n1ncn(-c2ccc(N3CCN(c4ccc(OCC5COC(Cn6cncn6)(c6ccc(Cl)cc6Cl)O5)cc4)CC3)cc2)c1=O (centres unmarked)	–	healthy human volunteers	oral, 200 mg, compound alone cohort	–	incidence of oesophageal spasm	0%
C=CC(=O)N(C)CCOc1c(N)ncnc1-c1cc(F)cc(NC(=O)c2ccc(C3CC3)cc2F)c1C	–	human, whole blood	oral, 15 mg, single ascending dose	–	AUC(0-t)	25.1 ng·h/mL
CC(C)NCC(O)COc1cccc2ccccc12 (centres unmarked)	–	male Hartley guinea pigs, anaesthetized	intravenous, 0.3 mg/kg over 10 min, after infusion	–	heart rate	184 ± 0.2 beats/min
CCCC(CCC)C(=O)Oc1cccc(C(O)CCN)c1.O=CO (centres unmarked)	–	Abca4-/-Rdh8-/- mice, photic damage	intraperitoneal, 10 mg/kg, 7 days, flash intensity 10	–	photopic S-cone ERG b-wave	41.8 µV and 40.2 µV and 29.7 µV and 48.3 µV and 42.2 µV and 38.4 µV and 54.3 µV and 30.8 µV
COc1ncc(-c2nc3c(n2C(C)C)[C@H](c2ccc(Cl)cc2)N(c2cc(Cl)cn(C)c2=O)C3=O)c(OC)n1	LC-MS/MS, noncompartmental	human, plasma	oral, 200 mg, cycle 1 day 8, high-dose, geometric mean	–	AUC(0-last)	4890 ng·h/mL
O=C(O)C(O)Cc1ccc(O)cc1 (centres unmarked)	–	human CSF	concentration not given, mean	–	CSF concentration	not detected
CC(C)n1c(Nc2cccnc2)nc2cnc(Nc3ccc(N4CCN(C)CC4)cc3)nc21	–	healthy male humans	oral, dose not given, drug interaction study, all arms	–	incidence of CPK increased TEAE	11.9%
COc1c(N2C[C@@H]3CCCN[C@@H]3C2)c(F)cc2c(=O)c(C(=O)O)cn(C3CC3)c12	–	male Hartley guinea pigs, anaesthetized	intravenous, 10 mg/kg group, baseline before infusion	–	heart rate	249 ± 0.3 beats/min
Cc1cc(NC2CCN(C(=O)OC3CCN(C(=O)/C=C/CN(C)C)C3)CC2)n2ncc(C(C)C)c2n1 (centres unmarked)	Phase I dose escalation CTCAE v4.0, measured: peripheral oedema	patients with advanced solid tumours	dose not given, Total dosing any grade	–	patients with adverse event	11%
Cc1ccc(OS(=O)(=O)O)c(O)c1	–	human CSF	concentration not given, mean	–	CSF concentration	not detected
C=CC(=O)N1CCC(c2ccc(C(N)=O)c(-c3ccc(Oc4ccccc4)cc3)n2)CC1	–	relapsed/refractory mantle cell lymphoma patients	oral, 100 mg twice daily, part, CTCAE v4.03	–	treatment-related AE rate	31.3%
Cc1ccc([C@@H]2O[C@H](CO)[C@@H](O)[C@H](O)[C@H]2O)cc1Cc1ccc(-c2ccc(F)cc2)s1	–	Japanese type 2 diabetes patients	400 mg, day 4, 24 h urine collection	reference: baseline	urinary potassium excretion change	-4.09 mEq
NC1(C(=O)N[C@@H](CCO)c2ccc(Cl)cc2)CCN(c2nc[nH]c3nccc2-3)CC1	–	metastatic CRPC patients	320 mg b.i.d., grade 3 to 4, treatment-related, together with: enzalutamide 160 mg daily	–	incidence of Anaemia	0%
CCOc1c([C@H](C)n2nc(C)c3c(N)ncnc32)cc(Cl)c(F)c1[C@@H]1CNC(=O)C1	ECG	previously treated B-cell malignancy patients	oral, 20 mg once daily, baseline QTcF ≤450 ms	–	observations ΔQTcF >30 ≤60 ms	3%
